Experimental data gathered from unrelated publications.
± marks the error that the study gave.

Structure (SMILES) | cell line | assay | system | setting | scale | quantity | result
COc1cc(CCC[P+](c2ccccc2)(c2ccccc2)c2ccccc2)c(OC)c2c1OCO2.[I-] | NCI-H322M | SRB | – | – | – | GI50 | -5.5 log M
CN1CCN(S(=O)(=O)c2cc([N+](=O)[O-])ccc2N(CCOS(C)(=O)=O)CCOS(C)(=O)=O)CC1 | sample DC T-ALL PDX cells | cell viability | ex vivo | 48 h, added: AKR1C3 inhibitor | baseline: with inhibitor over alone | IC50 fold change | 196
CC(C)c1c(CN(C)C(C)Cc2ccccc2)n(C)n(-c2ccccc2)c1=O (stereo not drawn) | human iPSC-derived cardiomyocytes | MyBP-C/MYH ratio, plate-normalised SD score | – | concentration not given, primary screen | direction not given | activity score | 4
COc1ccc2c(c1)[nH]c1c(C)nccc12 | DU-145 | bisulfite pyrosequencing, item: RASSF1A promoter CpG site 27 | – | 10 µM, 16 h | – | DNA methylation | 80.5%
COc1c(C)c2c(c(O)c1C/C=C(\C)CCC(=O)O)C(=O)OC2 | PBMC | cell proliferation | – | – | – | IC50 | > 10 µM
Nc1ncc(-c2nc(N3CCOCC3)nc(N3CCOCC3)n2)c(C(F)F)n1 | SK-N-FI | – | – | 72 h | – | GI50 | 0.13 µM
COc1c(CCC[P+](c2ccccc2)(c2ccccc2)c2ccccc2)cc2c(c1OC)OCO2.[I-] | HCT-15 | SRB | – | – | – | TGI | -4.15 log M
Nc1ncnc2c1ncn2[C@@H]1O[C@@H]2COP(=O)(O)O[C@H]3[C@@H](O)[C@H](n4cnc5c(=O)[nH]cnc54)O[C@@H]3COP(=O)(O)O[C@H]2[C@H]1O | HFF-1 | RNA sequencing Reactome analysis, item: Reactome R-HSA-6783783 interleukin-10 signaling | – | added: West Nile virus infection | baseline: West Nile virus infected cells, upregulated pathway | pathway fold enrichment | 10.2
CN1CCN(C2(CNC3CCN(c4cccc(-c5cc6cc(F)ccc6[nH]5)c4)CC3)CCC2)CC1 | HCC 2998 | – | – | – | – | GI50 | 1.4 µM
Cc1cc(C(C)(C)c2ccc(O)c(C)c2)ccc1O | HepG2 spheroids | Hoechst flow cytometry | – | 0.1 µM, 24 h | – | S phase cells | 8.88 ± 1.79%
CC(C)N1CCC(NC2CCN(c3cccc(-c4cc5cc(F)ccc5[nH]4)c3)CC2)CC1 | HCC 2998 | – | – | – | – | CC50 | 6.23 µM
CC[C@H](C)[C@H](NC(=O)[C@H](Cc1c[nH]c2ccccc12)NC(=O)[C@H](CO)NC(=O)[C@H](C)NC(=O)[C@H](CC(C)C)NC(=O)[C@H](C)NC(=O)[C@H](CC(C)C)NC(=O)[C@H](C)NC(=O)[C@H](CCC(=O)O)NC(=O)[C@H](C)NC(=O)[C@H](CCC(=O)O)NC(=O)[C@H](C)NC(=O)[C@H](CCC(=O)O)NC(=O)[C@H](C)NC(=O)[C@H](CC(C)C)NC(=O)[C@H](C)NC(=O)[C@H](CC(C)C)NC(=O)[C@H](Cc1c[nH]c2ccccc12)NC(=O)[C@H](Cc1c[nH]c2ccccc12)NC(=O)CN)C(=O)N[C@@H](CCCCN)C(=O)N[C@@H](CCCNC(=N)N)C(=O)N[C@@H](CCCCN)C(=O)N[C@@H](CCCNC(=N)N)C(=O)N[C@@H](CCC(N)=O)C(=O)N[C@@H](CCC(N)=O)C(=O)N[C@@H](CS)C(N)=O | human red blood cells | – | – | pH 7.4 | baseline: Triton X-100 | EC50 | > 100 µM

Excerpt of the above:
Structure (SMILES) | cell line | assay | system | setting | scale | quantity | result
COc1c(CCC[P+](c2ccccc2)(c2ccccc2)c2ccccc2)cc2c(c1OC)OCO2.[I-] | HCT-15 | SRB | – | – | – | TGI | -4.15 log M
